Published values pooled from the literature.
Each numbered part is a random draw from the data of one study; scales do not carry over between parts. Positions count from the first letter of the parent shown.

Study 1
Target: UBE2B UBC core domain (UniProt P63146)
Chain of UniProt P63146 (whole entry, looked up): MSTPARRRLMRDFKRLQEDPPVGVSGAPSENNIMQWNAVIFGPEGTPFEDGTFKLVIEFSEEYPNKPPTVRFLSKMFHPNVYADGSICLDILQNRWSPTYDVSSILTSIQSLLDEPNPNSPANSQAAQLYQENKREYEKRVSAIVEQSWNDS
Technique: yeast two-hybrid
Medium: yeast
Notes: mostly zero background
Baseline: not given
Reading: higher = stronger interaction
B1: DTX4 RING domain (UniProt Q9Y2E6); chain QKVRHPPDEDCTICMERLTAPSGYKGPQPTVKPDLVGKLSRCGHVYHIYCLVAMYNNGNKDGSLQCPTCKTIYGVKTGTQ
B2: RNF38 RING domain (UniProt Q9H0F5); chain PNNHQSEQTLCVVCMCDFESRQLLRVLPCNHEFHAKCVDKWLKANRTCPICRADASEVHRDS
B3: TRIM24 RING domain (UniProt O15164); chain EAARLNLLDTCAVCHQNIQSRAPKLLPCLHSFCQRCLPAPQRYLMLPAPMLGSAETPPPVPAPGSPVSGSSPFATQVGVIRCPVCSQECAERHII
B4: TRIM5 RING domain (UniProt Q9C035); chain ILVNVKEEVTCPICLELLTQPLSLDCGHSFCQACLTANHKKSMLDKGESSCPVCRISYQPENIRP
B5: TRIM40 RING domain (UniProt Q6P9F5); chain LQKDNQEEGVCPICQESLKEAVSTNCGHLFCRVCLTQHVEKASASGVFCCPLCRKPCSEEVLG
B6: RC3H1 RING domain (UniProt Q5TC82); chain QAPQWTDFLSCPICTQTFDETIRKPISLGCGHTVCKMCLNKLHRKACPFDQTTINTDIELL
B7: TRIM13 RING domain (UniProt O60858); chain MELLEEDLTCPICCSLFDDPRVLPCSHNFCKKCLEGILEGSVRNSLWRPAPFKCPTCRKETSATGINS
B8: NEURL1 RING domain (UniProt O76050); chain VTPGLGQWSDECTICYEHAVDTVIYTCGHMCLCYACGLRLKKALHACCPICRRPIKDIIKT
B9: TRIM5 RING domain (UniProt Q9C035); chain LREVKLSPEGQKVDHCARHGEKLLLFCQEDGKVICWLCERSQEHRGHHTFLTEEVAREYQVKL
Sequence	lacZ reporter activity
B1 (DTX4 RING domain)	0
B2 (RNF38 RING domain)	0
B3 (TRIM24 RING domain)	0
B4 (TRIM5 RING domain)	0
B5 (TRIM40 RING domain)	0
B6 (RC3H1 RING domain)	0
B7 (TRIM13 RING domain)	0
ASLPTSEEDLCPICYAHPISAVFQPCGHKSCKACINQHLMNNKDCFFCKTTIVSVEDWE (RNF123 RING domain (UniProt Q5XPI4))	0
QVDKAVFHMQSVKCLKCQEQKRAVLPCQHAALCELCAEGSECPICQPGRAHTLQS (UNK RING domain (UniProt Q9C0B0))	0
B8 (NEURL1 RING domain)	0
B9 (TRIM5 RING domain)	0
FQGDVDEDLICPICSGVLEEPVQAPHCEHAFCNACITQWFSQQQTCPVDRSVVTVAHLRP (RNF41 RING domain (UniProt Q9H4P4))	0
VEPSEENSKDCVVCQNGTVNWVLLPCRHTCLCDGCVKYFQQCPMCRQFVQESFALC (CGRRF1 RING domain (UniProt Q99675))	0

Study 2
Target: CCNB2, cyclin fold, Cln2 fusion (human)
Technique: yeast growth competition, sequencing
Medium: yeast
Notes: weak parent motif
Baseline: not given
Reading: higher = stronger binding
Starting sequence: FOXM1 docking peptide (human); PHLARPIKVESPP
Substitution	normalised enrichment score
P1A	-0.352
P6A	-0.452
S11A	-0.737
K8A	-0.268
H2A	-0.826
L3A	0.00176

Study 3
Target: ABI1, truncated, D143A, DHFR fusion (Arabidopsis thaliana)
Technique: DHFR PCA, deep sequencing
Medium: yeast
Notes: methotrexate growth selection, single substitutions
With: (+)-ABA 0.0091 µM
Baseline: wild-type fitted maximum
Reading: higher = stronger binding
Starting sequence: PYL1, truncated, DHFR fusion (Arabidopsis thaliana); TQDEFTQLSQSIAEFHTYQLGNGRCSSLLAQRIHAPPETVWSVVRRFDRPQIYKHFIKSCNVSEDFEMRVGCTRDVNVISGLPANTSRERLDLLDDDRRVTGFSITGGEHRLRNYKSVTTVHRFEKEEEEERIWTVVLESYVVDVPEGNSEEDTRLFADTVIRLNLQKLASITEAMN
Substitution	relative binding score
G102Q	-6.89%
R99H	61%
E139L	-2.44%
G107Q	5.5%
L82S	11.7%
N165L	-2.07%
Y115N	3.94%
A170W	-3.37%
L29K	-1.98%
T135P	-9.42%
S150F	-0.428%
T135H	3.4%
V145F	-7.43%
Y18G	-1.76%
Q2A	55.3%

Study 4
Target: Histone acetyltransferase KAT6A, both winged helices, GST fusion (KAT6A, Homo sapiens, UniProt Q92794, residues 1-181)
Technique: protein binding microarray
Form: double-stranded DNA, one strand shown
Medium: in vitro
Tested at: not given
Notes: 8-mer, flanks averaged, mean of 2 arrays, mostly near background
Baseline: not given
Reading: higher = stronger binding
Residues (chain): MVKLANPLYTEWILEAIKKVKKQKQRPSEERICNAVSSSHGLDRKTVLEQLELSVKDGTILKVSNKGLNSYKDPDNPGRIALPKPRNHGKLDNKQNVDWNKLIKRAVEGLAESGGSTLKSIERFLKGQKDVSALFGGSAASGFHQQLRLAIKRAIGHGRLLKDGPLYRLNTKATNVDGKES
Sequence	E-score
TATTAGGA	-0.146
GGACCACA	-0.124
CCCCTAGA	-0.287
CGAACCCG	0.262
CTCCGCAG	0.00687
CTATCTGA	-0.149
AGAGACAT	-0.206
ATGTCCGC	0.293
ATATAATC	-0.0348
GAAAGCAC	-0.144
CCTCGAAC	-0.104
ATCTGCCA	-0.181
AGGCGTTA	0.016
CATCCCAG	-0.305
ACACGTAC	-0.0221
CTTACACA	-0.0969
TAGGAAGA	-0.252
AGAATGAT	-0.114

Study 5
Target: Sal-like protein 4, full length isoform A (SALL4, Homo sapiens, UniProt Q9UJQ4, residues 1-1053)
Chain of UniProt Q9UJQ4 (whole entry, looked up): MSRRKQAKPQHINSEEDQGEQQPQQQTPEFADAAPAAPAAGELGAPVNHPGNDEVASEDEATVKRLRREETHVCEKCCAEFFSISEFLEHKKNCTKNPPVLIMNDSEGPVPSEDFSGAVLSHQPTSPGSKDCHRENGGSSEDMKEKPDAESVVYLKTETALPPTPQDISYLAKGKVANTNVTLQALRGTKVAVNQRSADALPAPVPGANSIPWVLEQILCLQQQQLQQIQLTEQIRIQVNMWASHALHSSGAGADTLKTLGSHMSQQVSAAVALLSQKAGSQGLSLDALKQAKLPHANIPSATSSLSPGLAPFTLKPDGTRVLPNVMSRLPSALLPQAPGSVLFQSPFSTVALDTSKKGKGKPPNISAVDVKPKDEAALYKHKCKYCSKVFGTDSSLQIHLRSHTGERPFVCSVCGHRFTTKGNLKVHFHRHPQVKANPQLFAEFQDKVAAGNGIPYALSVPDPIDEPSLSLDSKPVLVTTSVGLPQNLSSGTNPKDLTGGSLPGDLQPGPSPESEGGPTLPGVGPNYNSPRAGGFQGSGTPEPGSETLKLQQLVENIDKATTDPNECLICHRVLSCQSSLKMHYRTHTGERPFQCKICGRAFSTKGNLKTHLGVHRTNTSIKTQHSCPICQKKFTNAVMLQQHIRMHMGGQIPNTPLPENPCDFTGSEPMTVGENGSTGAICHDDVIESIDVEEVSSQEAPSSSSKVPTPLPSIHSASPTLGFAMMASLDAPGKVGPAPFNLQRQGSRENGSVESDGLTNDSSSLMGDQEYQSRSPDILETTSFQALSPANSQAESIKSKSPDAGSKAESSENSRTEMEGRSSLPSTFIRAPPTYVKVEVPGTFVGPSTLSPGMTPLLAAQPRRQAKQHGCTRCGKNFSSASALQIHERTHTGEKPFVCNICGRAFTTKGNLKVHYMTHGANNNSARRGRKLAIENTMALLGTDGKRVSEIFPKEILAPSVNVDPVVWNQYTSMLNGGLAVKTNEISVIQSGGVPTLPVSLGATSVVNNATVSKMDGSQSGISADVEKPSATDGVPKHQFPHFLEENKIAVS
Technique: universal PBM
Form: double-stranded DNA, one strand shown
Medium: in vitro
Tested at: 600 nM
Notes: 8-mer, flanks averaged, mean of replicates
Reading: higher = stronger binding
Sequence	E-score
CCCGGCAC	-0.399
AGCTATAG	0.129
CATGTAAG	0.117
AATGTGGG	0.103
AACAGTAA	0.194
CAGTTACG	-0.1
ACACGGGT	-0.146
CGCCATTA	-0.103
CCTGAGGC	-0.395
AGAAATAC	0.101
ATAGCGTA	0.119
GCTGAGCA	-0.128
CATCAGAG	-0.00545
ATTTATTG	0.344
AACGCACG	0.0611
AAATATCC	0.274
